Experimental data gathered from unrelated publications.
Protocols differ between the studies behind these lines. ± gives the spread as reported.

Amino acid sequences for entries named in this document (tags omitted). Residues count along the entry.
UniProt P25090, whole entry: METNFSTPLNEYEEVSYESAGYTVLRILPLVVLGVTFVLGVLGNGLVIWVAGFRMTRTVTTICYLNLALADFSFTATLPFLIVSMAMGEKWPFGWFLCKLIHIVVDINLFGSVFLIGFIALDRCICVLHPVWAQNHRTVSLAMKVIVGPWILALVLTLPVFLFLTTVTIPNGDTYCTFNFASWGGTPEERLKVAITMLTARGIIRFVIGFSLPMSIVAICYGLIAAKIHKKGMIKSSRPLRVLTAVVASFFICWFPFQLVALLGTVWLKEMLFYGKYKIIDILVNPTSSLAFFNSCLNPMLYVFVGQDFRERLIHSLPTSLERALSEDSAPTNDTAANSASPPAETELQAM
UniProt Q99873, whole entry: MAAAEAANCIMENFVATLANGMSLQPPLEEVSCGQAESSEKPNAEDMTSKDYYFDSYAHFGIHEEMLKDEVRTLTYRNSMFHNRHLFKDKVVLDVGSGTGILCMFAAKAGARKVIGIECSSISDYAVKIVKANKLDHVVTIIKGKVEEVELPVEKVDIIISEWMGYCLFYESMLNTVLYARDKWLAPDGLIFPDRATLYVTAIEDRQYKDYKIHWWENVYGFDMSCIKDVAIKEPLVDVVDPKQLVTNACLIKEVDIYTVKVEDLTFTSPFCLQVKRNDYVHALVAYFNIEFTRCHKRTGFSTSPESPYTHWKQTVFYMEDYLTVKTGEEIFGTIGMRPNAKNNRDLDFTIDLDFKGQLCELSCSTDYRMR
UniProt O95835, whole entry: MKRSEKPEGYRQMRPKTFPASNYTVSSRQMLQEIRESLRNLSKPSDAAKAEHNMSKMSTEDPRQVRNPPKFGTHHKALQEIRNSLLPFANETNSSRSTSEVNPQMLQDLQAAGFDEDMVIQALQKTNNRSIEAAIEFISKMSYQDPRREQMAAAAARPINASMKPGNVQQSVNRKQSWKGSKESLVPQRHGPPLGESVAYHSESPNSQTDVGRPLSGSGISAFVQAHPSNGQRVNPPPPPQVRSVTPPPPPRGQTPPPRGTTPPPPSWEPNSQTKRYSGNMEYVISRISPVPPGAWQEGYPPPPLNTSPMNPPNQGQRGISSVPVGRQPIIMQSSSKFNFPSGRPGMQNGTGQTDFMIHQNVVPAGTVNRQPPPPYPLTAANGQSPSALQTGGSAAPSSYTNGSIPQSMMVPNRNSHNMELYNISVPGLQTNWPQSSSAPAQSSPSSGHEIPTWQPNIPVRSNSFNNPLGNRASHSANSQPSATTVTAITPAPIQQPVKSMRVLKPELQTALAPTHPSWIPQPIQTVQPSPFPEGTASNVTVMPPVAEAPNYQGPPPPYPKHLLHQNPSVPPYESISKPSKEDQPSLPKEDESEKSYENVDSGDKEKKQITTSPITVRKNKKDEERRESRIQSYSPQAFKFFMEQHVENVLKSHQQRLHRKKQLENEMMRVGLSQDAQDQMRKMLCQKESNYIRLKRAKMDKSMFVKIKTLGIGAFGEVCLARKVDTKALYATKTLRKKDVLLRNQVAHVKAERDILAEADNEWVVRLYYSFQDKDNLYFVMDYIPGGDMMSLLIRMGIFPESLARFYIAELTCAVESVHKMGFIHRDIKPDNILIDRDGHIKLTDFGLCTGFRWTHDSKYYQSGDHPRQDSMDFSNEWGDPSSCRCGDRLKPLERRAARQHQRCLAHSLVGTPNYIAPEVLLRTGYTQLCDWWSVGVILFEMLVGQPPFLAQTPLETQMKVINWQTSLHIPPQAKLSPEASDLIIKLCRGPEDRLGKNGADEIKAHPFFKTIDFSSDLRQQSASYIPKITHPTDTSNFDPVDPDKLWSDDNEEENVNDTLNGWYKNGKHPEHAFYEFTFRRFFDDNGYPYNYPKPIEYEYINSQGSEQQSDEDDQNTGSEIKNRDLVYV
UniProt Q8R431, whole entry: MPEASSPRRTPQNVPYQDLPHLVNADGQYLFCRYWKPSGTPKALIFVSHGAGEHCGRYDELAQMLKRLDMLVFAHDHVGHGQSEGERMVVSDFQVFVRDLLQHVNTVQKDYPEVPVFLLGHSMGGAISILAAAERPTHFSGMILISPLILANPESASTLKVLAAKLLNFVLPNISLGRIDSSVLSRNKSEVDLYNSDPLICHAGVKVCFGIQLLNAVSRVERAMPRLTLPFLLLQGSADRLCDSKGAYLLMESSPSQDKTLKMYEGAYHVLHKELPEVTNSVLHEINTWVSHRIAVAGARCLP
UniProt P14902, whole entry: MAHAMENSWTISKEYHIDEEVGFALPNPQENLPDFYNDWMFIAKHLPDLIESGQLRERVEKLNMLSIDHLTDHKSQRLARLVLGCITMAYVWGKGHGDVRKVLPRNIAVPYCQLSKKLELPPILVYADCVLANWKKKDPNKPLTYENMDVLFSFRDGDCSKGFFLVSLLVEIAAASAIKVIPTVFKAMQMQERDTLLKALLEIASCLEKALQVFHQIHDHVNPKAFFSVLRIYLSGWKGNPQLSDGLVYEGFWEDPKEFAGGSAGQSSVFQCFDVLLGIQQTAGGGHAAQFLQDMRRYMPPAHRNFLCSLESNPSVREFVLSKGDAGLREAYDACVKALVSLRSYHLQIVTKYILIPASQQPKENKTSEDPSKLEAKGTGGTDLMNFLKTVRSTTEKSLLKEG
UniProt O95363, 37-451 limits assumed: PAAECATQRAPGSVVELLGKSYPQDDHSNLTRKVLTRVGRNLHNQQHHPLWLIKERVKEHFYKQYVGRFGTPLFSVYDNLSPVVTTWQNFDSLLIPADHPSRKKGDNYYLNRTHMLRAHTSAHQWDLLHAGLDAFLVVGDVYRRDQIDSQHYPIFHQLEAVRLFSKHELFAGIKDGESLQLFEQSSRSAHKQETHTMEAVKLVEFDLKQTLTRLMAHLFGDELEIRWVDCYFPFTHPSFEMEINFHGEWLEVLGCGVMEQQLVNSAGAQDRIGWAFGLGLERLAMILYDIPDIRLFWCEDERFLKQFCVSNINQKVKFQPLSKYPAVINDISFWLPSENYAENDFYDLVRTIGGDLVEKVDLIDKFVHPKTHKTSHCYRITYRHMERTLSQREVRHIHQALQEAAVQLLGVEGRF
UniProt O00748, 27-559 limits assumed: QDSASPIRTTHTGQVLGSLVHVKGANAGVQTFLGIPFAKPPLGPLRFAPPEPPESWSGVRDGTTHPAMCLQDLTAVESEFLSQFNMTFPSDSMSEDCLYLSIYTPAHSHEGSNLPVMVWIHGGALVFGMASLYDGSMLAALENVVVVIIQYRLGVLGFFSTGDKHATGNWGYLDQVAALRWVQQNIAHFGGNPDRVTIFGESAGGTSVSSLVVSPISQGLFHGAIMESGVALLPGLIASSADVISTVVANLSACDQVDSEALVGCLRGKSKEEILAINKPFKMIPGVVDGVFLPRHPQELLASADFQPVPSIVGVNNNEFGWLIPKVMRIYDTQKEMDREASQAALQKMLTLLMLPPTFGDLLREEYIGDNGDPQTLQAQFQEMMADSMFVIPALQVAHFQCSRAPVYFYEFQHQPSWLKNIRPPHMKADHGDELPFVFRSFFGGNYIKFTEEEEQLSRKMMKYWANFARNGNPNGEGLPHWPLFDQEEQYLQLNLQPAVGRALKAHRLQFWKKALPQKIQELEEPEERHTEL
UniProt Q9NV35, whole entry: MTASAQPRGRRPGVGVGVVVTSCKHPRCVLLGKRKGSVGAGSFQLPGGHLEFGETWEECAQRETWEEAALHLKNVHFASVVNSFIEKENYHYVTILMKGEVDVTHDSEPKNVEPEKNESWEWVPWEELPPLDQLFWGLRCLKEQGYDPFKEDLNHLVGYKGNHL
UniProt P26038, whole entry, looked up: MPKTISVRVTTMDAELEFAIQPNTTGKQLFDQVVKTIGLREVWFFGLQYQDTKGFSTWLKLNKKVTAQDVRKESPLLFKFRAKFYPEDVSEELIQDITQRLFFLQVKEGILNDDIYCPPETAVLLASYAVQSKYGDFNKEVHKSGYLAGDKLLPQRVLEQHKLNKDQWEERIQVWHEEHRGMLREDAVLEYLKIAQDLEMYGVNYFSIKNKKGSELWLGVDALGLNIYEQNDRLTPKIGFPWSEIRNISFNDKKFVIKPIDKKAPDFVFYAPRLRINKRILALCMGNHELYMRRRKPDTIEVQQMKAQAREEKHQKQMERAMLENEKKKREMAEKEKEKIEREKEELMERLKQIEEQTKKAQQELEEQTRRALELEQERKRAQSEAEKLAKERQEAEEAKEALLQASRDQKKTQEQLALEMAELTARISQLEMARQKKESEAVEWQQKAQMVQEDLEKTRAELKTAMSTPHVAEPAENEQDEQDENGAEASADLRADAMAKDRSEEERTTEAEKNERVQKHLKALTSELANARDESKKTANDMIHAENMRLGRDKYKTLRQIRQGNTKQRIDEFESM
UniProt P33176, whole entry, looked up: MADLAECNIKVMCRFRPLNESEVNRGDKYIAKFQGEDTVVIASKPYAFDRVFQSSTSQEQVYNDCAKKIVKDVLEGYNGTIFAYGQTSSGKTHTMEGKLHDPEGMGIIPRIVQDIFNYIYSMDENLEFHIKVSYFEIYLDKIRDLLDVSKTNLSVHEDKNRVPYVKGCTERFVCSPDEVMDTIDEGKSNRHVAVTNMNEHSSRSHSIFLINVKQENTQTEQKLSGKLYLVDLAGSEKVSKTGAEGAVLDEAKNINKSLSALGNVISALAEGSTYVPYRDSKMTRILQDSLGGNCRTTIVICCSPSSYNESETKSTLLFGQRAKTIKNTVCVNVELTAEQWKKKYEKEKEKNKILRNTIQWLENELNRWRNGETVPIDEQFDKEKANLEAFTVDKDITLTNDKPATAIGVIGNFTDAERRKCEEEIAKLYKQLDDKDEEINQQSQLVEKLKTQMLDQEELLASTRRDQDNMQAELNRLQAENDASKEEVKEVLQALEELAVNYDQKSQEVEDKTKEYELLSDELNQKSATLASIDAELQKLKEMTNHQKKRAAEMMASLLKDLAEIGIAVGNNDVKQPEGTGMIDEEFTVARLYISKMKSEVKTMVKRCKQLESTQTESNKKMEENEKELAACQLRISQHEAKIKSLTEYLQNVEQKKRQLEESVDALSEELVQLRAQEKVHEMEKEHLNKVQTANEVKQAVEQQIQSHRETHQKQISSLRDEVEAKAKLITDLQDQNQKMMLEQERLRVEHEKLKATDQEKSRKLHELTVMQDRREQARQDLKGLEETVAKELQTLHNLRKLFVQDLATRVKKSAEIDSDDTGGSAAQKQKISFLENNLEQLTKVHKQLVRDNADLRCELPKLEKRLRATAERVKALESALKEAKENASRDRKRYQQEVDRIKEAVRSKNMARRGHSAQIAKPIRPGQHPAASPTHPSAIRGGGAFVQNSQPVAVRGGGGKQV
UniProt P68400, whole entry: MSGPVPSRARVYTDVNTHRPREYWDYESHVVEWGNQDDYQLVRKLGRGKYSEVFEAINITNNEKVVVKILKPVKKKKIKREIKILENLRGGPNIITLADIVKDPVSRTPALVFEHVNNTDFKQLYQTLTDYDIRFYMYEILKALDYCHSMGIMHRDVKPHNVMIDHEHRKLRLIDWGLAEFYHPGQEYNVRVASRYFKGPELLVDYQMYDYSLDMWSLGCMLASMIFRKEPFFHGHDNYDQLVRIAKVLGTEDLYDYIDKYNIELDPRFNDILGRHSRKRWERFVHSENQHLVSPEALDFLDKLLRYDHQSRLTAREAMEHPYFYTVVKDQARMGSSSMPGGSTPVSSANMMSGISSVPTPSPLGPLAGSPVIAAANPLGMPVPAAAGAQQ
UniProt P28300, whole entry, looked up: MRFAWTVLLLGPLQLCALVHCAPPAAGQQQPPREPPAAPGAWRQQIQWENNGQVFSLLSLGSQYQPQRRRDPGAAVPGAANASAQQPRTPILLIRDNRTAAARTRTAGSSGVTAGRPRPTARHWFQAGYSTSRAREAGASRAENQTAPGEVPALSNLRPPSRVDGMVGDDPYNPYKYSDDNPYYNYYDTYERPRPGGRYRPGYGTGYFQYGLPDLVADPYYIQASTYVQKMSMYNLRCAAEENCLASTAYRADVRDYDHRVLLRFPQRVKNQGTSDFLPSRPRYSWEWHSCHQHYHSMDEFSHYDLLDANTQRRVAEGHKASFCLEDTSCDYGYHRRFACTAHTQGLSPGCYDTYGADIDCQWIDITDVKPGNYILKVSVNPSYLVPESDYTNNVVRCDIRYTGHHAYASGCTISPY
UniProt P05067, 672-713 limits assumed: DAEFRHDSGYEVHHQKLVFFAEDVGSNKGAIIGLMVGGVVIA
UniProt O14965, whole entry: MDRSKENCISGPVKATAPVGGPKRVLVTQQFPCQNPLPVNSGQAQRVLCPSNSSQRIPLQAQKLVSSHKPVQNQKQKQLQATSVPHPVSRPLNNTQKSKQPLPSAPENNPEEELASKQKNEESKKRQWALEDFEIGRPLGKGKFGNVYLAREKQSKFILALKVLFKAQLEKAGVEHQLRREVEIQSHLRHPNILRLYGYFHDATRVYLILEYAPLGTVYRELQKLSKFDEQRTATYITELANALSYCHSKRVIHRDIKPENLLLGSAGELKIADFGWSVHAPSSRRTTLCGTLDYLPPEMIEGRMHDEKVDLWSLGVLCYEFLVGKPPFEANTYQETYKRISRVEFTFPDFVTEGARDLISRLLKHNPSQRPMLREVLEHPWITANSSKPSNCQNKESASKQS

The IC50 of `COc1ccc(NC(=O)N[C@H](Cc2ccc(C#N)cc2)C(=O)NCC2(c3ccc(O)cc3)CC2)cc1` is reported as 29500 ± 2600 nM (FPR2 (Homo sapiens, UniProt P25090); calcium mobilization; FPR2-transfected HL-60; desensitization pretreatment, with: WKYMVM 5 nM).
With `O=C(NO)c1c(F)ccc(F)c1F` the IC50 was over 30000 nM (HDAC6 (Homo sapiens, UniProt Q9UBN7); enzyme activity, inhibitor, electrophoretic mobility shift; with: FAM-RHKK(Ac)-NH2 1 µM).
For `CC(=O)N(CC#Cc1cccc(C(N)=O)c1)C[C@H]1C[C@@H](n2ccc3c(Cl)ncnc32)[C@H](O)[C@@H]1O`, the IC50 was over 100000 nM (PRMT1 (Homo sapiens, UniProt Q99873); enzyme activity, inhibitor, SAHH-coupled fluorescence).
The IC50 of `CC(C)[C@H](N)c1nc2cc(-c3ccncc3)sc2c(=O)[nH]1` is reported as 29.8 ± 1.49 nM (CDC7 (Homo sapiens, UniProt O00311); enzyme activity, inhibitor).
With `Nc1cc(-c2ccc(C3(c4ccc(Cl)cc4)CCNCC3)cc2)ccn1` the IC50 was 198 nM (LATS1 (Homo sapiens, UniProt O95835); kinase activity, inhibitor, radiometric HotSpot; with: ATP 10 µM).
For `COc1ccc(-c2noc(C3CN(C(=O)OC(C(F)(F)F)C(F)(F)F)C3)n2)cc1`, the IC50 was 8.4 ± 0.2 nM (Monoglyceride lipase (Rattus norvegicus, UniProt Q8R431); enzyme activity, inhibitor; rat brain cytosol; 1 h preincubation, with: [3H]2-OG substrate).
For `CS(=O)(=O)Nc1cccc(/C=C/c2c[nH]c3ccc(C#N)cc23)c1`, the IC50 was 4800 nM (IDO1 (Homo sapiens, UniProt P14902); enzyme activity, inhibitor).
For `C1=C(CCNCc2ccccc2)CCCC1`, the IC50 was over 300 µg/mL (Phenylalanine--tRNA ligase, mitochondrial (Homo sapiens, UniProt O95363); phenylalanine activation, inhibitor; human enzyme).
The IC50 of `Cn1nc(-c2ccc(CC(=O)Nc3cc(C(C)(C)C)on3)cc2)c2c(N)ncnc21` is reported as 0.57 ± 0.05 nM (RET (Homo sapiens, UniProt P07949); inhibitor).
With `NCCCSc1c2ccccc2nc2ccccc12` the IC50 was 9800 nM (HASPIN (Homo sapiens, UniProt Q8TF76); inhibitor, TR-FRET; with: histone H3 peptide).
With `COc1cc2c(cc1OC)C(=O)/C(=C/c1ccccc1OC(=O)N(c1ccccc1)c1ccccc1)C2` the IC50 was 901 ± 127 nM (Cocaine esterase (CES2, Homo sapiens, UniProt O00748); inhibitor; 3 min preincubation, with: fluorescein diacetate).
For `CC(C)(C)OC(=O)N1CCN(S(=O)(=O)c2ccc3[nH]c(=O)oc3c2)CC1`, the IC50 was 1300 nM (NUDT15 (Homo sapiens, UniProt Q9NV35); enzyme activity, inhibitor, malachite green; with: dGTP).
`O=C(Nc1cccc(-c2nc3ccccc3s2)c1)c1ccc([N+](=O)[O-])cc1` has an IC50 of over 100000 nM (Moesin, with CD44 (Homo sapiens, UniProt P26038); MSN-CD44 interaction, inhibitor, TR-FRET; with: CD44).
The IC50 of `CN1CCN(Cc2ccc(NC(=O)c3cncc(C#Cc4c(N)ncc5ccc(F)cc45)c3)cc2C(F)(F)F)CC1` is reported as 46.5 ± 1.89 nM (Kinesin-1 heavy chain/ Tyrosine-protein kinase receptor RET (RET/KIF5B, Homo sapiens, UniProt P07949+P33176, G810R); cell viability, inhibitor, CellTiter-Glo; Ba/F3 KIF5B-RET G810R).
For `CNCCN(C)c1ccc(Nc2cc(NC3CC3)n3ncc(C#N)c3n2)cc1NC(C)=O`, the IC50 was 3.3 nM (CSNK2A1 (Homo sapiens, UniProt P68400); target engagement, NanoBRET; HEK293).
`Cc1nc(N)sc1-c1csc(Nc2ccc(O)cc2)n1` has an IC50 of 10000 nM (Protein-lysine 6-oxidase (Homo sapiens, UniProt P28300); LOX activity, inhibitor; MDA-MB-231).
With `O=C(/C=C/c1ccc(O)c(OC(F)(F)F)c1)C1=C(/C=C/c2ccc(O)c(OC(F)(F)F)c2)OCCC1` the IC50 was 1230 nM (Amyloid-beta precursor protein, Aβ aggregates (APP, Homo sapiens, UniProt P05067); binding, thioflavin T competition).
`CCc1ccccc1SCC(=O)Nc1ccc2nc(SCC(=O)NC(C)(C)C)sc2c1` gave an IC50 of 20000 to 50000 nM (Estrogen receptor (ESR1, Homo sapiens, UniProt P03372); reporter gene, antagonist; HEC-1 transfected ERα luciferase reporter).
With `CN1CC[C@H](c2c(O)cc(O)c3c(=O)cc(-c4ccccc4F)oc23)[C@H](O)C1` the IC50 was over 1000 nM (Aurora kinase A (AURKA, Homo sapiens, UniProt O14965); ATP at Km).

Excerpt of the above:
The IC50 of `Cn1nc(-c2ccc(CC(=O)Nc3cc(C(C)(C)C)on3)cc2)c2c(N)ncnc21` is reported as 0.57 ± 0.05 nM (RET (Homo sapiens, UniProt P07949); inhibitor).
